Results from different studies.
Each numbered part is a random draw from the data of one study; scales do not carry over between parts.

Sample 1 — target: UBE2M UBC core domain (UniProt P61081); technique: yeast two-hybrid; medium: yeast; notes: mostly zero background; baseline: not given; direction: higher = stronger interaction
B1: PHF21A RING domain (UniProt Q96BD5); chain SPTSTDGDIHEDFCSVCRKSGQLLMCDTCSRVYHLDCLDPPLKTIPKGMWICPRCQDQMLKKEEAIPW
B2: TRIM69 RING domain (UniProt Q86WT6); chain VIQDITMELHCPLCNDWFRDPLMLSCGHNFCEACIQDFWRLQAKETFCPECKMLCQYNNCTF
B3: CUL9 RING domain (UniProt Q8IWT3); chain AQAVPVRPDHCPVCVSPLGCDDDLPSLCCMHYCCKSCWNEYLTTRIEQNLVLNCTCPIADCPAQPTGAFIR
B4: RNF25 RING domain (UniProt Q96BH1); chain LTDNNIPHGQCVICLYGFQEKEAFTKTPCYHYFHCHCLARYIQHMEQELKAQGQEQEQERQHATTKQKAVGVQCPVCREPLVYDLASL
B5: RNF170 RING domain (UniProt Q96K19); chain TRQQFYTDMYCPICLHQASFPVETNCGHLFCGACIIAYWRYGSWLGAISCPICRQTVTLLLTVF
B6: UHRF2 RING domain (UniProt Q96PU4); chain CGGDPEKKCHSCSCRVCGGKHEPNMQLLCDECNVAYHIYCLNPPLDKVPEEEYWYCPSCKTDSSEVVKAGER
B7: TRIM8 RING domain (UniProt Q9BZR9); chain WKNCFEEELICPICLHVFVEPVQLPCKHNFCRGCIGEAWAKDSGLVRCPECNQAYNQKPGLE
B8: RC3H2 RING domain (UniProt Q9HBD1); chain QAAQWTEFLSCPICYNEFDENVHKPISLGCSHTVCKTCLNKLHRKACPFDQTAINTDIDVL
Construct (chain): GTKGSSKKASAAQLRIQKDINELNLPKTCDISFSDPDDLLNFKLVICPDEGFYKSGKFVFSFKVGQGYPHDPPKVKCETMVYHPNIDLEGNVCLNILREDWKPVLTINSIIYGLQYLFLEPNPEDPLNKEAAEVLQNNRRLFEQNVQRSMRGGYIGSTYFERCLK
Sequence	lacZ reporter activity
QHHELTSLFECPVCFDYVLPPILQCQAGHLVCNQCRQKLSCCPTCRGALTPSIRNL (SIAH2 RING domain (UniProt O43255))	0
B1 (PHF21A RING domain)	0
B2 (TRIM69 RING domain)	0
DDENSDNSNECVVCLSDLRDTLILPCRHLCLCTSCADTLRYQANNCPICRLPFRALLQIR (MGRN1 RING domain (UniProt O60291))	0
B3 (CUL9 RING domain)	0
B4 (RNF25 RING domain)	0
B5 (RNF170 RING domain)	0
B6 (UHRF2 RING domain)	0
B7 (TRIM8 RING domain)	0
B8 (RC3H2 RING domain)	0

Sample 2 — technique: RNA Bind-n-Seq; form: RNA; medium: in vitro; tested at: 200 nM; notes: whole 134-nt RNA, ends assumed; together with: 150 mM KCl; baseline: input library; direction: higher = stronger binding
Target: Fragile X messenger ribonucleoprotein 1, C-terminal low-complexity region (Fmr1, Mus musculus, UniProt P35922)
Shared flanks, not repeated: GGGAGUUCUACAGUCCGACGAUC … UGGAAUUCUCGGGUGUCAAGG
Strand	log2 enrichment
UGUGCUACACAUCGUAUGUACCGAAUCGGGGUUUUUUUGGGGAAAAAAAGGGGUUUUUGGGGAAAGUAUUAUGUUACGCCGUUCGGAUCU	0.0844
UGCCAAAGUAUGGCAAGAAAUUGCUCCUGGAAAUACUGAUGCCACCCCAGUAACUCAUGGAACUGAAAGCUCUUGGCAUGAAAUAGCAGC	0.436
UCCUCAAGUCCUGUGCUACACAUCGUAUGUACCGAAUCGGAGGAGGAGGGGAAAGUAUUAUGUUACGCCGUUCGGAUCUGCACUUCCAGC	-0.373
UCAAGUCCUGUGCUACACAUCGUAUGUACCGAAUCGGAGGAAAAAAAGGUUUGGAAAGUAUUAUGUUACGCCGUUCGGAUCUGCACUUCC	-0.962
GCAGGAAGUAAAAACAAAUGGAAAUGCUUCGGAUAGUGGCAGGGGUGGGGGUUGCUAAGGAAAGGGUGGGAUGGGAGUGCGUAAAGAGUU	0.296
CUCAAGUCCUGUGCUACACAUCGUAUGUACCGAAUCGGGAAAGGGAGGGUGGGAAAGUAUUAUGUUACGCCGUUCGGAUCUGCACUUCCA	1.17
CCUGUGCUACACAUCGUAUGUACCGAAUCGGGGUUUUUUGGGUUUUUUGGGUUUUUUGGGGAAAGUAUUAUGUUACGCCGUUCGGAUCUG	-0.532
CACAGACAAAACGCACCCACACAGACACAGAGGGAAGGGGUUGGGAUGGGGACAGGGUGCACAGCAGGGCGGGGUAGGACCCCAGCCCCU	1.2
AAGUCCUGUGCUACACAUCGUAUGUACCGAAUCGGAAAAGGGGAAAAGGGAAAAGGAAAGUAUUAUGUUACGCCGUUCGGAUCUGCACUU	-0.505

Sample 3 — technique: RNA Bind-n-Seq; form: RNA; medium: in vitro; tested at: 365 nM; baseline: no-protein control; direction: higher = stronger binding
Target: RNA binding protein fox-1 homolog 2, RRM domain, GST-SBP tag (RBFOX2, Homo sapiens, UniProt O43251-10, residues 100-194)
Notes: natural RNA segment, single round, ends assumed
Shared flanks, not repeated: GGGAGUUCUACAGUCCGACGAUC … UGGAAUUCUCGGGUGCCAA
Construct (chain): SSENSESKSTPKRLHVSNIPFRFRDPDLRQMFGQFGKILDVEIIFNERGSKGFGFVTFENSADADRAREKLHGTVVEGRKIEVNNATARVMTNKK
Strand	RBNS enrichment (R)
GUAGCAGUGUCCUUUUCUGAGGAAGGAAGUCUUAAACCCUUUCCCCCCACCCCCUGGGAUGACUGCCUUGAUUCCCAUGGGGAACAACUUUAAAGAAAACCACCACAGCA	1.62
CCAGAAAAGUGGCUCUCUUUGGUAGGGAGAGGGGCUCCAAUAUUUCGUUCUCUCCCCAUGGGGCACUGACAGAGAAAUGAAAUAGUUUUAUCUGGAAAAUUCCAGAGCUA	0.495
AGAUCCCAGAGGGAUAGAGGAGACAGUGAUCUGGGCUCUGUUUAGGAAUGGACUUUCCCCUAGGUAUCCAGGGAACCCAUUUUAGAAUUCGGGGGACCUGGCUUUGAGCU	0.979
UCUUGCCAGAGCUGAGCUGAGCAGCUCGUGUUCCAGCGCCAGUGGGGCCGAGGUUUGCUGUGGUUCUUGUUUCAGACUGGCGUGCUGAGUGCUGGAAGCUGUUUGCACCU	0.602
CACUCUCACUCCCUCCAGGAACAAAGAGCAGCUUUUGAGCCCGGACUUGUUGCUGGUUUAAAGGUUAUUGUGGGAAACUGAACUAAAGGAGUUAGCAUCUUUAUUUUUGU	0.313
UACUGCCAUAGAAGCUAAAAGCACCCUAGCUUUCUUAGACAAUCCACUUAGCUAUCUGAAACUUGAGGCAUUCCAGACCUGACAUGUUUACAAUGCACCACUGAACUUUU	1.1
AAUCCUCAGAAGCCUUACAAAAAUUGAGAUGUACCAUUUCUACCCUUUGAGAAAAAAGAAAUAGAAACUUACUUGAUGCAGAAUGGAUAUUUAUAUUUCUGCUUGCACCA	0.661
UUAUUUUUGUUUUAUUUUUGACAGACUAUUUGCUAAUGUAUAAUGUGCAGAAAAUAUUUAAUAUCAAAAGAAAAUUGAUAUUUUUAUACAAGUAAUUUCCUGAGCUAAAU	0.721

Sample 4 — technique: RNA Bind-n-Seq; form: RNA; medium: in vitro; tested at: not given; baseline: input RNA pool; direction: higher = stronger binding
Target: RING finger protein unkempt homolog, zinc fingers 1-6, GST-SBP tag (UNK, Homo sapiens, UniProt Q9C0B0, residues 30-357)
Chain of UniProt Q9C0B0 (30-357, looked up): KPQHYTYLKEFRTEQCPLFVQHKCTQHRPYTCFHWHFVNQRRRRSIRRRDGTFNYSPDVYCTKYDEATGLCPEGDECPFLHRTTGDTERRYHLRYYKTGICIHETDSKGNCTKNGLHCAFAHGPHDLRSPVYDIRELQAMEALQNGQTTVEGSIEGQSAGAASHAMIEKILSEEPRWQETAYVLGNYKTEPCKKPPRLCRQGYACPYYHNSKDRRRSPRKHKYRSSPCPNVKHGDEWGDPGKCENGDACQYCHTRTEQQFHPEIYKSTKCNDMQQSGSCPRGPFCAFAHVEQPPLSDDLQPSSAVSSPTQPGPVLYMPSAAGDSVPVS
Notes: RNA with constant flanks, human-mouse chimeric sites, ends assumed
Shared flanks, not repeated: GGGAGUUCUACAGUCCGACGAUC … CAACAGAGGAUUGAGCAUCA
Strand	bound/input enrichment
GUUCGGCUCUGGGAUCAUGCUACUAUGACAGAAGUGAAAUCUCUGAAUUUUAAUAUGUCUGUUAGCAGCAUGGAGUAUAUUCCUGAGGGAGAGAUUUUGGUUAUUACUUAUGGACGAUCU	0.376 ratio
CUGAGGAAUACCACUGAGAGACCUUAAAAGAAUCAUUUGAGGGCUCUGUUCGUGCAAGAAUAGUCACUGAUCGGGAAACUGGUUCUUCCAAAGGGUUUGGUUUUGUAAGACUUCAACGUG	0.331 ratio
GGAAGUACAAUGAUGGAGAUUGAUGGUGAUAAAGGCAAGCAGGGCGGGCCCACCUACUACAUAGACACUAAUGCUCUCCGCGUGCCCAGGGAGAACAUGGAGGCCAUCUCACCACUCAAG	0.597 ratio
GCAGGAUCUUCUAAGUACCAGUGGGGCAUUAUGAAAUCCCUUGGGCUCUCUGAUGACGACAUAGUGAAAUUUUCUGAAGCAGAGCACUGGCUUGAUUAUUUCCCACCACUGGCCGUUCAG	0.193 ratio
CUGAAAAACACAGAUAUCAAAGUUGUUGACUUUGGAAGUGCAACGUAUGAUGAUGAACAUCAUAGUACUUUGGUGUCCACAAGGCACUACAGAGCUCCCGAGGUCAUUUUGGCUUUAGGU	0.216 ratio
GGCCUGGGACCGUCCUGGGCUAGUACAAAUAGCGGCAGUGGAGGCUCGAGAGGAAAGUUUGUUAGUGGAGGCAGUGGAGAGGUCGUCAUGUACGCUCCCUUUACUCGAUAGAUGUGUUCU	0.427 ratio
GAGUCGAUUAUGGAAACAACAAUUCGUUAUCUUGCAGCCUCAGUGUUCACUUGCUUGGCGAUAGCAUUGGGGUUUUAUAGGUUCUGGAAGGAGAACUGACGAUGAUGCUGCCGCUGCUGC	0.2 ratio
ACUCAGAGAUCCACCUCAAUUGAAGUGGGGAGUAAAGGUGUGGCCACCACACCUAACUUGAUGGAUAUUUUAUAAAGUUAAUAUGAAUCUUCCUGUUCGUCCAGGGAAGAAAGAUUUGUU	0.355 ratio

For quick reference, copied from above (sample 2):
Strand	log2 enrichment
UGCCAAAGUAUGGCAAGAAAUUGCUCCUGGAAAUACUGAUGCCACCCCAGUAACUCAUGGAACUGAAAGCUCUUGGCAUGAAAUAGCAGC	0.436
UCCUCAAGUCCUGUGCUACACAUCGUAUGUACCGAAUCGGAGGAGGAGGGGAAAGUAUUAUGUUACGCCGUUCGGAUCUGCACUUCCAGC	-0.373
UCAAGUCCUGUGCUACACAUCGUAUGUACCGAAUCGGAGGAAAAAAAGGUUUGGAAAGUAUUAUGUUACGCCGUUCGGAUCUGCACUUCC	-0.962
GCAGGAAGUAAAAACAAAUGGAAAUGCUUCGGAUAGUGGCAGGGGUGGGGGUUGCUAAGGAAAGGGUGGGAUGGGAGUGCGUAAAGAGUU	0.296
CUCAAGUCCUGUGCUACACAUCGUAUGUACCGAAUCGGGAAAGGGAGGGUGGGAAAGUAUUAUGUUACGCCGUUCGGAUCUGCACUUCCA	1.17
